# Results collected from several papers.
# Parts stem from different laboratories: compare values within a part only. Changes are numbered by the printed parent chain.

# Block 1
# Target: MAFK, bZIP domain (human)
# Technique: DHFR protein complementation
# Medium: yeast
# Setting: single substitutions, most at no-binding floor
# Relative to: wild-type JUN-FOS pair
# Direction: higher = stronger binding
# Starting sequence: JUN, bZIP domain (human); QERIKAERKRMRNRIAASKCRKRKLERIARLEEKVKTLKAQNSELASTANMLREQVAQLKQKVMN; partner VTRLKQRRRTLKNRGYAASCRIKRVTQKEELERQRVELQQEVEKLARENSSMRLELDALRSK
Change,binding fitness [natural log]
A57K,-1.42
L45D,-1.47
T37D,-1.52
L38V,-1.52
A40L,-1.5

# Block 2
# Target: Histone acetyltransferase KAT6A, winged helix 1, GST fusion (KAT6A, Homo sapiens, UniProt Q92794, residues 1-85)
# Technique: protein binding microarray
# Molecule type: double-stranded DNA, one strand shown
# Medium: in vitro
# Concentration: not given
# Setting: 8-mer, flanks averaged, mean of 2 arrays, mostly near background
# Relative to: not given
# Direction: higher = stronger binding
# Construct (chain): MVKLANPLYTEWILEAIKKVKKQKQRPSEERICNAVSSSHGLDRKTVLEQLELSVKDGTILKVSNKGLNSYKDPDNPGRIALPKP
Oligonucleotide,E-score
AACTATCT,-0.175
AGCATCCA,-0.226
AGAAGTCT,-0.128
AAACTAGC,0.0477
ACCGTGTA,-0.0155
CATTGTCG,-0.052
GAATAACC,-0.00624
CGGTATTA,0.197

# Block 3
# Target: ABI1, truncated, D143A, DHFR fusion (Arabidopsis thaliana)
# Technique: DHFR PCA, deep sequencing
# Medium: yeast
# Setting: methotrexate growth selection, single substitutions
# With: (+)-ABA 0.11 µM
# Relative to: wild-type fitted maximum
# Direction: higher = stronger binding
# Starting sequence: PYL1, truncated, DHFR fusion (Arabidopsis thaliana); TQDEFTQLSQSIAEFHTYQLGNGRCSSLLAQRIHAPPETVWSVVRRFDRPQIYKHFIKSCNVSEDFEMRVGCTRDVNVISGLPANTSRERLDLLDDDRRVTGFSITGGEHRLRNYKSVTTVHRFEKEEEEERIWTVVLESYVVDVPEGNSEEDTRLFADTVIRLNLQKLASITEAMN
Change,relative binding score [%]
R99N,-1.13
R123Q,70.7
I33M,5.83
C25E,-2.94
C60S,3.45
G107R,6.79
R99T,-9.33
S9F,4.45

# Single results of other studies
Molecule,target,test,test system,conditions,how to read,measurement,result
"PhoQ, residues 284 288 289 292 302 303 MLMVEA","PhoP, residues 12 14 15 18 19 NQGLL (Escherichia coli, UniProt P23836)","Sort-seq, measured: YFP reporter",E. coli,"PhoQ-PhoP variant library, with: 10 µM Mg2+","relative to: high Mg2+ state, higher = stronger signaling",fold induction,10.2

# Some of these lines once more (block 3):
Change,relative binding score [%]
I33M,5.83
G107R,6.79
